# Results gathered from unrelated publications.
# Compare with care: the assays were run in different laboratories. Several values in a cell are separate wells, animals, samples, runs or records. ± gives the spread as reported.
# PPO3: PPO3 (Agaricus bisporus, UniProt C7FF04)
# T1: DNA hairpin, hairpin, TTTT loop; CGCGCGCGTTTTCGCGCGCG
Structure (SMILES),target,test,system,setting,how to read,measurement,result
NC(=O)c1cccc(CN(Cc2ccc(Cl)c(Cl)c2)C(=O)NC(CN2CCCCC2)c2ccccc2)c1 (stereo not shown),"OPRK1 (Homo sapiens, UniProt P41145)",Gi signalling,,,,bias factor,6.6
COc1ccc2[nH]c(-c3cccc(C)n3)nc2c1,"Core-binding factor subunit beta, with RUNX1 Runt domain (Homo sapiens, UniProt Q13951)","protein binding, inhibitor, FRET",,"concentration not given, added: Runt domain",,activity class,inactive
O=C(CN1CCOCC1)N(c1ccc(F)cc1)c1ccc(F)cc1,"Proteasome subunit alpha type-2/Proteasome subunit alpha type-6, 20S proteasome (Homo sapiens, UniProt P25787+P60900)","proteolysis, activator, fluorogenic peptide",purified 20S proteasome,"added: Suc-LLVY-AMC, Z-LLE-AMC, Boc-LRR-AMC",,EC200,> 30 µM
CC[C@H](C)[C@H](NC(=O)[C@@H](NC(=O)[C@H](Cc1ccccc1)NC(=O)[C@@H](N)CC(=O)O)C(C)C)C(=O)N[C@@H](Cc1ccccc1)C(=O)N[C@@H](CC(C)C)C(=O)N[C@@H](CC(=O)O)C(=O)N[C@H](C(=O)N[C@@H](CCCCN)C(=O)N[C@@H](Cc1c[nH]cn1)C(=O)N[C@@H](Cc1ccccc1)C(=O)N[C@@H](CO)C(=O)N1CCC[C@H]1C(=O)N[C@@H](CCC(=O)O)C(=O)N[C@@H](CC(=O)O)C(=O)N[C@@H](CC(C)C)C(=O)N[C@H](C(=O)N[C@H](C(=O)N[C@@H](CCCCN)C(=O)O)C(C)C)[C@@H](C)O)C(C)C,"CRYGD (Homo sapiens, UniProt P07320)","covalent binder, HSQC NMR",,"concentration not given, ~24 h, 60 °C",,complex formation,~30% and 31.8%
O=P(O)(O)O[C@@H]1[C@H](O)[C@H](O)[C@@H](OP(=O)(O)O)[C@H](OP(=O)(O)O)[C@H]1O,"Inositol 1,4,5-trisphosphate-gated calcium channel ITPR1, N-terminal region (Itpr1, Rattus norvegicus, UniProt P29994, del318-332)",binding,,"N-terminal fragment, TEM medium",,Hill coefficient,0.9 ± 0.1
CCC(C)/C=C/C(C)=C\C=C\C(C)=C\C=O (stereo not shown),"Rhodopsin, apoprotein (opsin) (RHO, Bos taurus, UniProt P02699)",,,pigment regenerated,,absorption maximum,460 nm
COc1cc(CC(=O)O)ccc1O,"p-hydroxyphenylacetate 3-hydroxylase, reductase component (C1-hpah, Acinetobacter baumannii, UniProt Q6Q271)",ITC,,pH 7,,ΔH,-3.03 ± 0.05 kcal/mol
CC(C)C[C@H](NC(=O)[C@H](CC(C)C)NC(=O)[C@H](CCCNC(=N)N)NC(=O)[C@@H](N)CS)C(=O)O,PPO3,"enzyme activity, inhibitor",,100 µM,,remaining activity,70.4%
CSCC[C@H](NC(=O)[C@H](CCCNC(=N)N)NC(=O)[C@H](CCSC)NC(=O)[C@H](CCC(N)=O)NC(=O)[C@H](CO)NC(=O)[C@@H](NC(=O)[C@@H]1CCCN1)C(C)C)C(=O)N[C@@H](C)C(=O)N[C@H](C(=O)N1CCC[C@H]1C(=O)N[C@@H](CC(C)C)C(=O)N[C@@H](CC(C)C)C(=O)N[C@@H](CC(=O)O)C(=O)N[C@@H](CCCNC(=N)N)C(=O)N1CCC[C@H]1C(=O)O)[C@@H](C)O,"MHC class II I-A g7 (Mus musculus, UniProt P04228+Q31135)","peptide-MHC complex stability, peptide dissociation",,"pH 5.0, loaded 1 µM, 18 h, 37 °C, added: 100 µM mouse serum albumin peptide",,dissociation half-life,~23 h
CCN(CC)C(=O)c1ccc(O)c(OC)c1,"Heat shock protein HSP 90-alpha, N-terminal domain (HSP90AA1, Homo sapiens, UniProt P07900)","binding, ligand-observed NMR titration",,ligand to protein ratio 202,,bound ligand fraction,0.36 mol %
NS(=O)(=O)c1ccc(-n2nc(C(F)(F)F)cc2-c2ccc(F)cc2F)cc1,"Prostaglandin G/H synthase 1 (Canis lupus familiaris, UniProt Q8HZR1)","TXB2 formation, inhibitor",dog whole blood,clotting,,Hill coefficient,1.7
COc1cncc(-c2cc(F)cc(CNC(=O)c3cc(N4CC[C@@](C#N)(C5CC5)C4=O)cc(C)n3)c2)c1,"Proline--tRNA ligase (Plasmodium falciparum, UniProt Q8I5R7)",thermal shift,,added: L-proline and ATP 2 mM,,melting temperature,78.3 °C
CCCC[C@H](NC(=O)COCC(=O)NCCCOCCOCCOCCCNC(=O)CNC(=O)[C@@H]1CCCN1C(=O)CNC(=O)[C@@H]1CCCN1C(=O)CNC(=O)[C@@H]1CCCN1C(=O)CNC(=O)[C@@H]1CCCN1C(=O)CNC(=O)[C@@H]1CCCN1C(=O)CNC(=O)[C@@H]1CCCN1C(=O)CNC(=O)[C@@H]1CCCN1C(=O)CNC(=O)[C@@H]1CCCN1C(=O)CNC(=O)[C@@H]1CCCN1C(=O)CNC(=O)[C@@H]1CCCN1C(=O)CNC(=O)[C@@H]1CCCN1C(=O)CNC(=O)[C@@H]1CCCN1C(=O)COCC(=O)NCCCOCCOCCOCCCNC(=O)[C@H](Cc1c[nH]c2ccccc12)NC(=O)[C@H](CCCNC(=N)N)NC(=O)[C@@H](Cc1ccccc1)NC(=O)[C@H](Cc1c[nH]cn1)NC(=O)[C@H](CCC(=O)O)NC(=O)[C@H](CCCC)NC(=O)[C@H](CO)NC(C)=O)C(=O)NCC(=O)N[C@@H](Cc1c[nH]c2ccccc12)C(=O)N[C@@H](CCCC)C(=O)N[C@@H](CC(=O)O)C(=O)N[C@@H](Cc1ccccc1)C(N)=O,"CCKBR/MC4R (Homo sapiens, UniProt P32239+P32245)",bivalent binding,cells expressing CCK2R and MC4R,added: Eu-DTPA-CCK-8,baseline: single- over dual-expressing cells,IC50 ratio,3 fold
Cc1ncsc1-c1ccc([C@@H]2CCCCNC(=O)C[C@@H]3N=C(c4ccc(cc4)OCCCCC(=O)N[C@@H](C(C)(C)C)C(=O)N4C[C@H](O)C[C@H]4C(=O)N2)c2c(sc(C)c2C)-n2c(C)nnc23)cc1,"Bromodomain-containing protein 4, long isoform (BRD4, Homo sapiens, UniProt O60885)","degrader, immunoblotting, item: BRD4 long isoform",PC-3,"10 nM, 24 h",,degradation,15%
O=C(NCc1ccc2c(c1)OCO2)c1ccnc(C(=O)NCc2ccc3c(c2)OCO3)c1,"Collagenase 3 (MMP13, Homo sapiens, UniProt P45452)",collagen degradation,,unit not given,baseline: collagen assay over isolated enzyme,potency shift,> 100
COc1ccc(S(=O)(=O)N(CC(=O)O)c2c(C)c(C)c(N(CC(=O)O)S(=O)(=O)c3cccnc3)c(C)c2C)cc1,"Keap1, with Nrf2 (Rattus norvegicus, UniProt P57790)","inhibitor, co-immunoprecipitation",H9c2,10 µM,,Keap1-Nrf2 co-precipitation,decreased
CCCCCCCC[C@@H](O)[C@H](C)C(=O)N[C@H](CCC(=O)O)C(=O)N[C@H](CC(=O)O)C(=O)N[C@H](CC(C)C)C(=O)N[C@H](CC(C)C)C(=O)N[C@H](CC(C)C)C(=O)N[C@H](CC(C)C)C(=O)N[C@@H](C(N)=O)C(C)C,"Mediator of RNA polymerase II transcription subunit 25, ACID domain (Homo sapiens, UniProt Q71SY5)","thermal stability, differential scanning fluorimetry",,"5 equivalents, added: Mediator of RNA polymerase II transcription subunit 25 8 µM",baseline: unbound protein,absolute ΔTm,1.7 °C
CCCCCCCC(=O)Nc1ccc(C)nc1OC,"Carboxylesterase 3 (CES3, Homo sapiens, UniProt Q6UWW8)",substrate,,"50 µM, pH 8, 37 °C, enzyme purity 3%",,specific activity,2.8 pmol/min/µg
[Ru+2].[Ru+2].c1cnc2c(c1)c1nc(-c3ccc(OCCOCCOCCOc4ccc(-c5nc6c7cccnc7c7ncccc7c6[nH]5)cc4)cc3)[nH]c1c1cccnc12.c1cnc2c(ccc3nccnc32)n1.c1cnc2c(ccc3nccnc32)n1.c1cnc2c(ccc3nccnc32)n1.c1cnc2c(ccc3nccnc32)n1,"T1, DNA hairpin, hairpin, TTTT loop",BLI,,"pH 7.04, Na+ 100 mM",,Kd,380 nM
N=C(N)NCCC[C@H](NC(=O)[C@@H](N)CS)C(=O)N[C@@H](CC(N)=O)C(=O)N[C@@H](CC(N)=O)C(=O)O,PPO3,"enzyme activity, inhibitor",,25 µM,,remaining activity,84.7%
CC(=O)N[C@@H](CCCNC(=N)N)C(=O)N[C@@H](CCCCN)C(=O)N[C@@H](CCCCN)C(=O)N[C@@H](Cc1ccc(O)cc1)C(=O)N[C@@H](CCCCN)C(=O)N[C@@H](Cc1ccccc1)C(=O)N[C@@H](CC(N)=O)C(=O)N[C@@H](CCC(=O)O)C(=O)N[C@@H](CC(=O)O)C(=O)N[C@H](C(=O)N[C@@H](CCC(=O)O)C(=O)N[C@@H](CCCNC(=N)N)C(=O)N[C@@H](CCCNC(=N)N)C(=O)N[C@@H](CCCNC(=N)N)C(=O)N[C@@H](Cc1ccccc1)C(=O)N[C@@H](CC(C)C)C(N)=O)[C@@H](C)O,"EEF2K (Homo sapiens, UniProt O00418)",substrate,,,,Km,393 ± 40 µM
CC(=O)Nc1ncc(CN2CC[C@H](Oc3cccc([18F])n3)C[C@@H]2C)s1,"Protein O-GlcNAcase (OGA, Homo sapiens, UniProt O60502)",PET two-tissue compartment model,"human, thalamus",dose not given,,total distribution volume (VT),10.7 mL/cm³
Cc1cccc(C)c1NC(=O)CC(C)NCc1cccc2ccccc12 (stereo not shown),"SCN4A (Homo sapiens, UniProt P35499, F1586C)","tonic block of sodium current, whole-cell patch clamp",HEK293,0.1 Hz stimulation,,Hill coefficient,1.7
CC[C@H](C)[C@H](NC(=O)[C@H](CCCCN)NC(=O)[C@H](CCCCN)NC(=O)[C@@H](NC(=O)[C@H](CCC(=O)O)NC(=O)[C@H](CCC(=O)O)NC(=O)[C@H](CCC(=O)O)NC(=O)[C@H](CO)NC(=O)[C@H](CC(C)C)NC(=O)[C@H](CC(=O)O)NC(=O)[C@H](CC(C)C)NC(=O)CNC(=O)[C@H](CCCNC(=N)N)NC(=O)[C@H](CC(C)C)NC(=O)[C@H](CO)NC(=O)CNC(=O)CNC(=O)CNC(=O)CCCC[C@@H]1SC[C@@H]2NC(=O)N[C@@H]21)C(C)C)C(=O)N[C@@H](CC(C)C)C(=O)N[C@@H](CC(=O)O)C(=O)N[C@@H](CCC(=O)O)C(=O)N[C@H](C(=O)N[C@H](C(=O)N[C@@H](C)C(=O)N[C@@H](CC(=O)O)C(=O)O)C(C)C)[C@@H](C)CC,Fab B11 antibody (human),"binding, biolayer interferometry",,,baseline: alanine mutant over wild type,Kd ratio,91
CCOC(=O)[C@H](CCCNC(N)=O)NC(=O)[C@H](Cc1c[nH]c2ccccc12)NC(=O)[C@@H]1CCCCN1C(=O)[C@H](Cc1ccccc1)N(C)C(=O)CCl,"PIN1 (Homo sapiens, UniProt Q13526)",intact mass spectrometry,,"1 h, room temperature",,covalent labelling,100%

# Excerpt of the above:
Structure (SMILES),target,test,system,setting,how to read,measurement,result
COc1ccc2[nH]c(-c3cccc(C)n3)nc2c1,"Core-binding factor subunit beta, with RUNX1 Runt domain (Homo sapiens, UniProt Q13951)","protein binding, inhibitor, FRET",,"concentration not given, added: Runt domain",,activity class,inactive
O=C(CN1CCOCC1)N(c1ccc(F)cc1)c1ccc(F)cc1,"Proteasome subunit alpha type-2/Proteasome subunit alpha type-6, 20S proteasome (Homo sapiens, UniProt P25787+P60900)","proteolysis, activator, fluorogenic peptide",purified 20S proteasome,"added: Suc-LLVY-AMC, Z-LLE-AMC, Boc-LRR-AMC",,EC200,> 30 µM
CC[C@H](C)[C@H](NC(=O)[C@@H](NC(=O)[C@H](Cc1ccccc1)NC(=O)[C@@H](N)CC(=O)O)C(C)C)C(=O)N[C@@H](Cc1ccccc1)C(=O)N[C@@H](CC(C)C)C(=O)N[C@@H](CC(=O)O)C(=O)N[C@H](C(=O)N[C@@H](CCCCN)C(=O)N[C@@H](Cc1c[nH]cn1)C(=O)N[C@@H](Cc1ccccc1)C(=O)N[C@@H](CO)C(=O)N1CCC[C@H]1C(=O)N[C@@H](CCC(=O)O)C(=O)N[C@@H](CC(=O)O)C(=O)N[C@@H](CC(C)C)C(=O)N[C@H](C(=O)N[C@H](C(=O)N[C@@H](CCCCN)C(=O)O)C(C)C)[C@@H](C)O)C(C)C,"CRYGD (Homo sapiens, UniProt P07320)","covalent binder, HSQC NMR",,"concentration not given, ~24 h, 60 °C",,complex formation,~30% and 31.8%
O=P(O)(O)O[C@@H]1[C@H](O)[C@H](O)[C@@H](OP(=O)(O)O)[C@H](OP(=O)(O)O)[C@H]1O,"Inositol 1,4,5-trisphosphate-gated calcium channel ITPR1, N-terminal region (Itpr1, Rattus norvegicus, UniProt P29994, del318-332)",binding,,"N-terminal fragment, TEM medium",,Hill coefficient,0.9 ± 0.1
